Experimental data pooled from the literature.
Each line is one published result; not all experiments were run side by side. “And” joins repeats or separate records; there may be more than shown. ± gives the spread as reported.

Compound | assay | system | setting | how to read | endpoint | result
COc1ccc(F)cc1C(=O)NCc1ccc(-c2nn([C@@H](C)C(F)(F)F)c(N)c2C(N)=O)cc1 | – | CLL/SLL patients | dose not given, prior BTKi stopped for toxicity/other | – | overall response rate | 52%
Cc1ccc(C(=O)Nc2ccnc(S(N)(=O)=O)c2)c(N2CCCC(F)(F)CC2)n1 | – | rhesus macaque | intravenous, 1.3 mg/kg | relative to: vehicle | capsaicin flare | decreased
N#Cc1ccc2c(-c3ccncc3)c(-c3ccc(F)cc3)nn2c1 | kinase binding, competitor, MIB/MS competition, item: CKA2 | Candida albicans cell lysate | 10 µM | relative to: DMSO | log2 fold change | 0.302
N=C(N)NCCC[C@H](NC(=O)[C@H](CCCNC(=N)N)NC(=O)[C@H](CCCCN)NC(=O)[C@H](CCC(N)=O)NC(=O)[C@H](CCCCN)NC(=O)[C@H](Cc1ccc(O)cc1)NC(=O)[C@@H](N)CCCCN)C(=O)N[C@@H](CO)C(=O)N[C@@H](Cc1ccc(O)cc1)C(=O)N[C@@H](CCCCN)C(=O)O | air evaporative stimulus | dentin hypersensitivity patients | 10 µg/tooth single, day 22, phase 1/2a | relative to: baseline, direction not given | Schiff sensitivity score change | -1 ± 0.89
CC(C)(C)c1sc2ncnc(Oc3c(F)cccc3OC(F)(F)F)c2c1-c1ccc(Cl)cc1 | antihyperalgesia, paw withdrawal latency | MrgprX1 mice, CCI model | oral | – | ED50 | 8.94 mg/kg
CSCCNc1nc(SCCC(F)(F)F)nc2c1ncn2[C@@H]1O[C@H](COP(=O)(O)OP(=O)(O)C(Cl)(Cl)P(=O)(O)O)[C@@H](O)[C@H]1O | platelet aggregation, light transmission aggregometry | human patients, platelet-rich plasma | dose not given, 2 h, with: TRAP 5 µM | – | inhibition | 36.6 ± 33.3%
C[C@H]1C[C@H]2CSC(N)=N[C@@]2(c2nc(NC(=O)c3ccc(OC(F)F)cn3)cs2)CO1 | item: total Aβ | healthy adults, plasma | 125 mg once daily, day 1 | relative to: placebo | percent change from baseline | -59.6%
Cc1n[nH]c2ccc(-c3cc(OC[C@@H](N)Cc4ccccc4)cnc3-c3ccoc3)cc12 | kinase binding, competitor, MIB/MS competition, item: CAK1 | Candida albicans cell lysate | 100 nM | relative to: DMSO | log2 fold change | -0.167
Cc1cn(-c2ccc3n(c2=O)CCN([C@@H](C)[C@@H]2CC[C@H](c4cc(F)c(Cl)cc4C(F)(F)F)O2)C3=O)cn1 | – | human, CSF | 300 mg, at Tmax, single dose | relative to: baseline | placebo-adjusted total Abeta change | 7.11%
O=C(O)COCCN1CCN(C(c2ccccc2)c2ccc(Cl)cc2)CC1 (stereo not drawn) | paw oedema | mouse | intraperitoneal, 10 mg/kg, 1 h, with: histamine | – | inhibition | 71.6%
CCO[C@H]1CCN(Cc2c(OC)cc(C)c3[nH]ccc23)[C@H](c2ccc(C(=O)O)cc2)C1 | – | PNH patients, blood | oral, 25 mg then 100 mg, week 12, mean absolute change | relative to: baseline | C3d-positive type III RBCs | -1%
Cn1cc(Nc2nccc(-c3ccc4c(c3)CN(C3COC3)CC[C@H]4NC(=O)c3cn(C(C)(C)C)nn3)n2)cn1 | item: LXR/RXR Activation | splenic B cells, mouse | in vivo, 30 mg/kg, IgD-activated B cells | relative to: vehicle, positive = activation | pathway activation z-score | -0.707
Cc1ccc(C(=O)OCc2ccc([C@@H](CN)C(=O)Nc3ccc4cnccc4c3)cc2)c(C)c1 | tonometry | Macaca cyclopis, ocular normotensive | ocular, 0.02%, 8 h | – | IOP | 16.8 mmHg
CO[C@H]1CC[C@H](N2C(=O)CNc3ncc(-c4ccc(C(C)(C)O)nc4)nc32)CC1 | flow cytometry | stimulated monocytes, human, blood | 30 mg single dose, 5 h, median | relative to: baseline | pAKT change from baseline | -51.1%
C[C@H](Oc1ccc(Br)cc1-c1ccon1)C(=O)O | maximum voluntary grip contraction, handgrip dynamometry | healthy human | 800 mg, SAD | – | difference from placebo | -0.483 kg
C=CCn1c(=O)c2cnc(Nc3ccc(N4CCN(C)CC4)cc3)nc2n1-c1ccc2c(n1)[C@@](O)(CC)CC2 | – | BALB/c nude mouse, LoVo xenograft | oral, 80 mg/kg once daily, 5 d on 2 d off ×3, day 24 | relative to: vehicle | tumour volume difference | 332 ± 26.8 mm3
Cc1oncc1C(=O)Nc1ccc(C(F)(F)F)cc1 | item: dihydroorotate | CD-1 mouse, female, whole blood | oral, 30 mg/kg, 240 h on day 10 | relative to: vehicle | blood concentration increase | 13 fold
N#CC[C@H](C1CCCC1)n1cc(-c2ncnc3[nH]ccc23)cn1 | – | Balb/c mice, oxazolone atopic dermatitis | day 8, unit not given | relative to: vehicle | ear thickness difference | -0.154
C[C@@H](NC(=O)N1C(=O)[C@H](Cc2ccnc(N)c2)[C@H]1C(=O)O)C1CCCCC1 | – | human | intravenous infusion, 0.3 to 2.25 mg/kg/h, 5 days | – | ACT change | no effect
O=S(=O)(NCCNC/C=C/c1ccc(Br)cc1)c1cccc2cnccc12 | – | mouse zygotes | 20 µM, 48 h post-hCG | – | embryos reaching 4-cell | 0%
O=c1cc(-c2ccccc2)oc2cc(O)c(O)c(O)c12 | H&E staining | ApoE-/- mouse, aortic sections | oral gavage, dose not given | – | foam cell formation | decreased
COc1ccc2c(c1)CN(C(=O)CCN1CCC(Cc3ccccc3)CC1)CC[S@@+]2[O-] | – | anaesthetised Beagle dogs | intravenous, 0.1 mg/kg, pacing cycle length 360 ms | – | atrial ERP prolongation | 30.4%
O=C(O)CNC(=O)Cc1ccccc1 | – | ventricular cardiomyocytes, C57BL/6 mouse | dose not given, 0.352 s | – | sarcomere length | 1.72 µm

Compound | assay | system | setting | how to read | endpoint | result
NC(=O)c1cnc2[nH]ccc2c1N[C@@H]1[C@@H]2CC3C[C@H]1C[C@@](O)(C3)C2 | flow cytometry | Japanese healthy men, blood | oral, 10 mg twice daily, 72 h after day 7 dose | relative to: baseline | CD8+ central memory change | -0.33%
O=C1Nc2ccccc2C1=Cc1ccccn1 | ferric chloride carotid thrombosis | rat | oral, 5.6 mg/kg, 2 h before thrombosis | – | occlusion time prolongation | 57.9%
CC(C)NCC(O)c1ccc(O)c(O)c1 (stereo not drawn) | – | ventricular cardiomyocytes, C57BL/6 mouse | dose not given, 0.16 s | – | sarcomere length | 1.54 µm
Cc1cc(C)c(CNC(=O)c2cc(Cl)c3c(c2C)O[C@@](C)([C@H]2CC[C@H](N(C)C)CC2)O3)c(=O)[nH]1 | IWG 2007 criteria | human, relapsed/refractory PTCL not otherwise specified | dose not given | – | best overall response PR | 23%
CC(C)C[C@H](NC(=O)[C@@H](Cc1c[nH]c2ccccc12)NC(=O)[C@H](Cc1ccc(O)cc1)NC(=O)[C@H](CO)NC(=O)[C@H](Cc1c[nH]c2ccccc12)NC(=O)[C@H](Cc1c[nH]cn1)NC(=O)[C@@H]1CCC(=O)N1)C(=O)N[C@@H](CCCNC(=N)N)C(=O)N1CCC[C@H]1C(=O)NCC(N)=O | – | Chinese girls, central precocious puberty | intramuscular, 22.5 mg day 1, month 6, month 6, Tanner stage II | – | girls at breast stage | 44%
Cn1cc(Nc2nc(N)nc(-c3cccc(-n4ccc5cc(C6CC6)cc(F)c5c4=O)c3CO)n2)cn1 | CD63 upregulation, anti-IgE-induced | human, multiple ascending dose, whole blood basophils ex vivo | 300 mg twice daily, day 14, 2 h | – | inhibition | 97.7%
c1ccc(-c2n[nH]cc2-c2ccnc3ccccc23)nc1 | kinase binding, competitor, MIB/MS competition, item: NIK1 | Candida albicans cell lysate | 100 nM | relative to: DMSO | log2 fold change | 0.728
C[C@@H]1C[C@H]2[C@@H]3CCC4=CC(=O)C=C[C@]4(C)[C@@]3(F)[C@@H](O)C[C@]2(C)[C@@]1(O)C(=O)CO | – | BALB/c mice, oxazolone atopic dermatitis | topical, 20 mg/ear, 192 h, day 8, unit not given | relative to: vehicle | ear thickness difference | -0.221
C[C@@H](O)CCOC(=O)C[C@@H](C)O | item: Arg | human, plasma | 60 min, log2-transformed values | – | metabolite level | 6.39 ± 0.28 µmol/L
N#Cc1ccc(Oc2ccc3c(c2)COB3O)cc1 | – | Balb/c mice, oxazolone atopic dermatitis | day 14, unit not given | relative to: vehicle | ear thickness difference | -0.228
C[C@H]1O[C@@H](O[C@H]2CC[C@@]3(C)[C@@H](CC[C@]4(C)[C@@H]3C=C[C@]35OC[C@@]6(CCC(C)(C)C[C@H]63)[C@@H](O)C[C@]54C)[C@]2(C)CO)[C@H](O)[C@@H](O[C@@H]2O[C@H](CO)[C@@H](O)[C@H](O)[C@H]2O)[C@H]1O | – | pair-fed control mice, plasma | dose not given, high dose | relative to: AST over ALT | AST/ALT ratio | 1.57 and 1.56 and 2.19 and 1.8
NC/C(=C\F)COc1cccc(Cn2c(=S)[nH]c(=O)c3[nH]cnc32)c1 | – | Mus musculus, carrageenan air pouch exudate | 3 mg/kg, 12 h, λ-carrageenan-induced oedema | – | exudate volume | 3.5 mL and 3.9 mL and 3 mL and 3.4 mL and 3.6 mL
COc1ccc(-c2cncc(N[C@@H](C)c3cccc(NC(=O)c4cncc(C)c4)c3)n2)cc1OC | item: rno-miR-185-5p | rat SU5416/hypoxia model, lung | dose not given, unit not given | relative to: SU5416/hypoxia vehicle | delta delta Ct | -0.127
OC(CCN1CCCCC1)(c1ccccc1)C1CC2C=CC1C2 (stereo not drawn) | resting-state EEG | healthy elderly humans | oral, 2 mg, eyes closed, LS mean | relative to: baseline | change in EEG Beta3-power Pz-O2 | 7.3%
COc1cc2c(cc1OC)C(=O)C(CC1CCN(Cc3ccccc3)CC1)C2 (stereo not drawn) | Morris water maze | C57BL/6J mice, vascular dementia | 10.0 and 1.0 mg/kg | – | escape latency | decreased
COc1cc(Nc2ncc3c(n2)-c2ccc(Cl)cc2C(c2c(F)cccc2OC)=NC3)ccc1C(=O)O | – | mouse, OS-1 osteosarcoma xenograft | oral, 10.4 mg/kg, day 21 | relative to: vehicle | relative tumour volume T/C | 1.57
CC(c1cc2ccccc2s1)N(O)C(N)=O (stereo not drawn) | item: 12-HETE | human whole blood | 3 µM, with: Escherichia coli | – | amount | 20200 ± 4420 pg/mL blood
O=C(NC[C@H]1CN(c2ccc(N3CCOCC3=O)cc2)C(=O)O1)c1ccc(Cl)s1 | – | human moderate renal impairment, plasma | 10 mg, mean, unit not given | relative to: baseline | prothrombin time AUC(0-48h) | 70.4
COc1cc(F)c([C@@H]2CNC(=O)[C@H]2NC(=O)Nc2ccccc2)c(F)c1 | terminal haemodynamics | rat, permanent coronary occlusion MI | 1 mg/kg, 1008 h, 6 weeks post-MI | – | LV dP/dtmax | 5860 ± 707 mmHg/s
N#Cc1ccn2c(-c3ccncc3)c(-c3ccc(F)cc3)nc2c1 | kinase binding, competitor, MIB/MS competition, item: RIO2 | Candida albicans cell lysate | 10 µM | relative to: DMSO | log2 fold change | 0.27
N#Cc1ccc2c(c1)[C@H]1CCCN(C(=O)c3ccc4[nH]cnc4c3)[C@H]1C2 | item: HDL | human | 20 mg once daily, day 28, adjusted mean | relative to: placebo | change from baseline | -4.36 mg/dL
CCN1[C@@H](C(=O)NC23CCC(C(=O)O)(CC2)CC3)[C@H](c2cccc(Cl)c2F)[C@]2(C(=O)Nc3cc(Cl)ccc32)C12CCCCC2 | – | patients with advanced solid tumours | 100 mg, 24 h after dose | relative to: before dosing | serum MIC-1 (GDF-15) level | increased

For quick reference, copied from above:
Compound | assay | system | setting | how to read | endpoint | result
CSCCNc1nc(SCCC(F)(F)F)nc2c1ncn2[C@@H]1O[C@H](COP(=O)(O)OP(=O)(O)C(Cl)(Cl)P(=O)(O)O)[C@@H](O)[C@H]1O | platelet aggregation, light transmission aggregometry | human patients, platelet-rich plasma | dose not given, 2 h, with: TRAP 5 µM | – | inhibition | 36.6 ± 33.3%
Cc1n[nH]c2ccc(-c3cc(OC[C@@H](N)Cc4ccccc4)cnc3-c3ccoc3)cc12 | kinase binding, competitor, MIB/MS competition, item: CAK1 | Candida albicans cell lysate | 100 nM | relative to: DMSO | log2 fold change | -0.167
N#Cc1ccc2c(-c3ccncc3)c(-c3ccc(F)cc3)nn2c1 | kinase binding, competitor, MIB/MS competition, item: CKA2 | Candida albicans cell lysate | 10 µM | relative to: DMSO | log2 fold change | 0.302
COc1cc(F)c([C@@H]2CNC(=O)[C@H]2NC(=O)Nc2ccccc2)c(F)c1 | terminal haemodynamics | rat, permanent coronary occlusion MI | 1 mg/kg, 1008 h, 6 weeks post-MI | – | LV dP/dtmax | 5860 ± 707 mmHg/s
COc1ccc2c(c1)CN(C(=O)CCN1CCC(Cc3ccccc3)CC1)CC[S@@+]2[O-] | – | anaesthetised Beagle dogs | intravenous, 0.1 mg/kg, pacing cycle length 360 ms | – | atrial ERP prolongation | 30.4%
